Assay results pooled from the literature.
Each line is one published result; not all experiments were run side by side. pIC50, pKi: −log10 of the molar value.
SLC6A4: Sodium-dependent serotonin transporter (SLC6A4, Homo sapiens, UniProt P31645)
Chain of UniProt P31645 (whole entry, unmodified, looked up): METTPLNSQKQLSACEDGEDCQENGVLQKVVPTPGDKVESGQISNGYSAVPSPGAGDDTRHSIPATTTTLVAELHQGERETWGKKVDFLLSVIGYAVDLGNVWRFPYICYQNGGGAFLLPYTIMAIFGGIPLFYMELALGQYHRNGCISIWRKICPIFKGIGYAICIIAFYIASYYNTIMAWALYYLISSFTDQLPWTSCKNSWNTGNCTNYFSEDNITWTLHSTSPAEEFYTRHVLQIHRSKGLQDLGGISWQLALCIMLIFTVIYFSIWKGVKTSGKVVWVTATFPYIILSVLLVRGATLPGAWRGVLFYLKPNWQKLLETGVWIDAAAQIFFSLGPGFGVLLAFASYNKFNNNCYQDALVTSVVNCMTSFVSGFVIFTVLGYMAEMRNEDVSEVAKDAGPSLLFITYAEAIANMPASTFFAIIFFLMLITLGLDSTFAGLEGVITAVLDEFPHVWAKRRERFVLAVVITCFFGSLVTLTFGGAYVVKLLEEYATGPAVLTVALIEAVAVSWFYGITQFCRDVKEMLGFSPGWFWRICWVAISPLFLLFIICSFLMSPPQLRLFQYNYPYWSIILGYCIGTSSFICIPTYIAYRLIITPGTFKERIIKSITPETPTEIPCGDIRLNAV

Compound | target | read-out | mode | technique | notes | endpoint | result
CCCC(NC)C(=O)c1ccc(C)cc1 (stereo not drawn) | SLC6A4 | transporter uptake | inhibitor | radiometric | – | pIC50 | 6.27
CCc1ccc2[nH]c3nc(SCCNS(=O)(=O)c4ccc(NC(C)=O)cc4)nnc3c2c1 | SLC6A4 | transporter uptake | inhibitor | radiometric | – | pIC50 | 3.72
CCN(CC)C(=O)[C@@H]1C=C2c3cccc4[nH]cc(c34)C[C@H]2N(C)C1 | SLC6A4 | transporter uptake | inhibitor | radiometric | – | pIC50 | < 5.00
C[C@H]1[C@H](c2cccc(Cl)c2)OCC(C)(C)N1C | SLC6A4 | transporter uptake | inhibitor | radiometric | – | pIC50 | 6.27
CNC(C)C(=O)c1ccccc1 (stereo not drawn) | SLC6A4 | transporter uptake | inhibitor | radiometric | – | pIC50 | 4.53
CNC(C)Cc1ccc2c(c1)OCO2 (stereo not drawn) | SLC6A4 | ligand displacement | – | radioligand | cell membranes | pKi | 4.83
C=C[C@H]1CN2CC[C@H]1C[C@H]2[C@H](O)c1ccnc2ccccc12 | SLC6A4 (Homo sapiens, UniProt P31645, Y95F) | transporter uptake | inhibitor | radiometric | – | pKi | 4.82
CCC(NC)C(=O)c1ccc2c(c1)OCO2 (stereo not drawn) | SLC6A4 | ligand displacement | – | radioligand | cell membranes | pKi | 4.98
CCCNC(C)C(=O)c1ccc2c(c1)OCO2 (stereo not drawn) | SLC6A4 | ligand displacement | – | radioligand | cell membranes | pKi | 4.88
CC[C@@H]1NC(C)(C)CO[C@H]1c1cccc(Cl)c1 | SLC6A4 | transporter uptake | inhibitor | radiometric | – | pIC50 | 5.74
CC(C(=O)c1ccc2c(c1)OCO2)N(C)C (stereo not drawn) | SLC6A4 | transporter uptake | inhibitor | radiometric | – | pIC50 | < 5.04
CCN1[C@@H](C)[C@H](c2cccc(Cl)c2)OCC1(C)C | SLC6A4 | transporter uptake | inhibitor | radiometric | – | pIC50 | 5.82

Repeated from above:
Compound | target | read-out | mode | technique | notes | endpoint | result
CCCC(NC)C(=O)c1ccc(C)cc1 (stereo not drawn) | SLC6A4 | transporter uptake | inhibitor | radiometric | – | pIC50 | 6.27
